{"data": "Measurements gathered from unrelated publications", "note": "Each numbered part is a random draw from the data of one study; scales do not carry over between parts."}
{"data": "Study 1", "target": "Histone acetyltransferase KAT6A, winged helix 1, GST fusion (KAT6A, Homo sapiens, UniProt Q92794, residues 1-85)", "method": "protein binding microarray", "molecule type": "double-stranded DNA, one strand shown", "medium": "in vitro", "concentration": "not given", "notes": "8-mer, flanks averaged, mean of 2 arrays, mostly near background", "reference": "not given", "reading": "higher = stronger binding", "Target sequence (chain)": "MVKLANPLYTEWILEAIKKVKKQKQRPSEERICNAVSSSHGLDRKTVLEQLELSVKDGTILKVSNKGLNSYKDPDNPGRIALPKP"}
{"Strand": "GTTAAGTA", "E-score": -0.151}
{"Strand": "AATGATCC", "E-score": -0.0109}
{"Strand": "GTAGCACA", "E-score": 0.0335}
{"Strand": "AAAATGTG", "E-score": 0.0379}
{"Strand": "GACCGTAA", "E-score": 0.14}
{"Strand": "CCCATATA", "E-score": 0.0703}
{"Strand": "ATCCACTC", "E-score": -0.284}
{"Strand": "TACCGGAA", "E-score": 0.193}
{"Strand": "ACGCGGCA", "E-score": 0.406}
{"Strand": "CCGAAGCA", "E-score": -0.0391}
{"Strand": "GCAACCAC", "E-score": -0.199}
{"Strand": "CCGTAGTC", "E-score": 0.321}
{"Strand": "ATTGGAGC", "E-score": -0.181}
{"Strand": "ATCGGGTA", "E-score": 0.116}
{"Strand": "TCTGATCA", "E-score": -0.168}
{"Strand": "TTAAGTAA", "E-score": -0.0652}
{"Strand": "TATCCTCA", "E-score": -0.256}
{"Strand": "CGCTACAA", "E-score": 0.123}
{"Strand": "CCACTTCA", "E-score": -0.114}
{"Strand": "CAATCCCA", "E-score": -0.217}
{"Strand": "AGGTAAGG", "E-score": -0.176}
{"Strand": "AATCCAAA", "E-score": -0.145}
{"Strand": "CATAACCG", "E-score": 0.00118}
{"Strand": "CCGTCAAG", "E-score": 0.261}
{"Strand": "CCACAATA", "E-score": -0.114}
{"data": "Study 2", "target": "RNA binding protein fox-1 homolog 2, RRM domain, GST-SBP tag (RBFOX2, Homo sapiens, UniProt O43251-10, residues 100-194)", "method": "RNA Bind-n-Seq", "molecule type": "RNA", "medium": "in vitro", "concentration": "365 nM", "notes": "natural RNA segment, single round, ends assumed", "reference": "no-protein control", "reading": "higher = stronger binding", "Construct (chain)": "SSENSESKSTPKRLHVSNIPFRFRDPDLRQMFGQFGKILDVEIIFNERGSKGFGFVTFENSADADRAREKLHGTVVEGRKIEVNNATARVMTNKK"}
{"Strand": "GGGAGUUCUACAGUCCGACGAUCGGCUCUGGUUCAAUAAGCAGUCACCCAAAGUAAAGACUCUAUCUUGAAAGGCUUUUGGUGAAAAUGAAGGGAUUUCAUUUGAAAUUACAGCAUGAUGAAUUUUGCAUGGGUGGAAUUCUCGGGUGCCAA", "RBNS enrichment (R)": 27.3}
{"Strand": "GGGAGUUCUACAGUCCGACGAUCUCUACCCAUUGGCUCAAGCAGAAAUCUGGAAGUCAUCUUUGACUCCUUCCUCUCCCUCCUGAUAAACAUCUAAGCAGUUUCUAAGUCUAGUUUUACCUCUUAAAUAUCUCUGGAAUUCUCGGGUGCCAA", "RBNS enrichment (R)": 0.46}
{"Strand": "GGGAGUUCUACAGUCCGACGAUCCUGCUGCUCCAUGCUUUGGCCAAUAAGAUGGGUCUGAAGUUUCAGAGGUACCGACUUGUUCCCUAUGGAAAUCAUUCCUAUCUGGAGUCUCUGACAGACAAAUCUAAGGAUGGAAUUCUCGGGUGCCAA", "RBNS enrichment (R)": 0.232}
{"Strand": "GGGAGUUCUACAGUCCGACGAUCCUCUUUUUCUCAUUGUCAUUUGUUGGCUUUAUUAGGGCUGUCUUACAGGAUCAUGUUGGCAUUUACUAUCAUGUCUUUAUCAUAAACCAUGUUUGUUUGAGGUAGAAGAAUGGAAUUCUCGGGUGCCAA", "RBNS enrichment (R)": 0.52}
{"Strand": "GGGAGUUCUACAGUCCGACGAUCAAUUCACAGUCGCCGAGUCUACCUAGCUUUCUUGGAAGCAGUCUAGCAAAAUUUCUAUUUGUACGUUCACUAAUUAUCUACAAGGACAAAAUCAGUUGUAUUUACAAAACUGGAAUUCUCGGGUGCCAA", "RBNS enrichment (R)": 0.235}
{"Strand": "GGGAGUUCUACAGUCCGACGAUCUUUCCUAUUGCCAAAAGAAAGAAAGGGGGCCAAACAGCUCUGAAAUUUCCAAAAAAUGGCUAGAGGGAGAGUCCAGUUUCUGAGCUCUGUACCCAAAUUAAAAUCCUGAUUGGAAUUCUCGGGUGCCAA", "RBNS enrichment (R)": 0.316}
{"Strand": "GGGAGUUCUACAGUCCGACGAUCUCUAACCUGAAGAUGCUGAGGAAGGAGCCUAUUGGUGCAACCUAGGUUGGUGAUCCAUUGGGUGGAUCAGGACGGAACUCUGUGUCCCCAGGUCUCAGGAGUGCCAUCCCUGGAAUUCUCGGGUGCCAA", "RBNS enrichment (R)": 0.437}
{"Strand": "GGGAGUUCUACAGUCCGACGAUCAGGGGGUCUCAGGGCAGCAGCAUACAAGGUGGCAGCGGGUAACCCUGCCUUGUUCUGUCAUCCAGGGCUCCUUUGCUGCCCCGUUCUGUCACCCAGGGCUCCUAGGGGGAUGGAAUUCUCGGGUGCCAA", "RBNS enrichment (R)": 0.423}
{"data": "Study 3", "target": "TAR DNA-binding protein 43, full length, His tag (TARDBP, Homo sapiens, UniProt Q13148, residues 1-414)", "method": "RNA Bind-n-Seq", "molecule type": "RNA", "medium": "in vitro", "concentration": "20 nM", "notes": "6-mer, flanks averaged, single round", "with": "150 mM KCl", "reference": "input library", "reading": "higher = stronger binding"}
{"Strand": "AACAAC", "6-mer enrichment (R)": 0.815}
{"Strand": "UAGAUA", "6-mer enrichment (R)": 0.634}
{"Strand": "CUCAGG", "6-mer enrichment (R)": 0.962}
{"Strand": "AAUGAU", "6-mer enrichment (R)": 0.69}
{"Strand": "ACGCGU", "6-mer enrichment (R)": 0.833}
{"Strand": "GAUUGG", "6-mer enrichment (R)": 1.45}
{"Strand": "CUCUCA", "6-mer enrichment (R)": 0.553}
{"Strand": "GGCAGC", "6-mer enrichment (R)": 1.72}
{"Strand": "CGGCAU", "6-mer enrichment (R)": 0.833}
{"Strand": "CGGACA", "6-mer enrichment (R)": 0.958}
{"Strand": "GGACAC", "6-mer enrichment (R)": 1.09}
{"Strand": "UAAUAG", "6-mer enrichment (R)": 0.728}
{"Strand": "GCUAUC", "6-mer enrichment (R)": 0.62}
{"Strand": "AACCAC", "6-mer enrichment (R)": 0.615}
{"Strand": "UAUCGA", "6-mer enrichment (R)": 0.595}
{"Strand": "UUCGUG", "6-mer enrichment (R)": 0.765}
{"Strand": "ACGUCU", "6-mer enrichment (R)": 0.596}
{"data": "Study 4", "target": "Sal-like protein 4, full length isoform A (SALL4, Homo sapiens, UniProt Q9UJQ4, residues 1-1053)", "method": "universal PBM", "molecule type": "double-stranded DNA, one strand shown", "medium": "in vitro", "concentration": "600 nM", "notes": "8-mer, flanks averaged, mean of replicates", "reading": "higher = stronger binding", "sequence of UniProt Q9UJQ4 (whole entry, looked up)": "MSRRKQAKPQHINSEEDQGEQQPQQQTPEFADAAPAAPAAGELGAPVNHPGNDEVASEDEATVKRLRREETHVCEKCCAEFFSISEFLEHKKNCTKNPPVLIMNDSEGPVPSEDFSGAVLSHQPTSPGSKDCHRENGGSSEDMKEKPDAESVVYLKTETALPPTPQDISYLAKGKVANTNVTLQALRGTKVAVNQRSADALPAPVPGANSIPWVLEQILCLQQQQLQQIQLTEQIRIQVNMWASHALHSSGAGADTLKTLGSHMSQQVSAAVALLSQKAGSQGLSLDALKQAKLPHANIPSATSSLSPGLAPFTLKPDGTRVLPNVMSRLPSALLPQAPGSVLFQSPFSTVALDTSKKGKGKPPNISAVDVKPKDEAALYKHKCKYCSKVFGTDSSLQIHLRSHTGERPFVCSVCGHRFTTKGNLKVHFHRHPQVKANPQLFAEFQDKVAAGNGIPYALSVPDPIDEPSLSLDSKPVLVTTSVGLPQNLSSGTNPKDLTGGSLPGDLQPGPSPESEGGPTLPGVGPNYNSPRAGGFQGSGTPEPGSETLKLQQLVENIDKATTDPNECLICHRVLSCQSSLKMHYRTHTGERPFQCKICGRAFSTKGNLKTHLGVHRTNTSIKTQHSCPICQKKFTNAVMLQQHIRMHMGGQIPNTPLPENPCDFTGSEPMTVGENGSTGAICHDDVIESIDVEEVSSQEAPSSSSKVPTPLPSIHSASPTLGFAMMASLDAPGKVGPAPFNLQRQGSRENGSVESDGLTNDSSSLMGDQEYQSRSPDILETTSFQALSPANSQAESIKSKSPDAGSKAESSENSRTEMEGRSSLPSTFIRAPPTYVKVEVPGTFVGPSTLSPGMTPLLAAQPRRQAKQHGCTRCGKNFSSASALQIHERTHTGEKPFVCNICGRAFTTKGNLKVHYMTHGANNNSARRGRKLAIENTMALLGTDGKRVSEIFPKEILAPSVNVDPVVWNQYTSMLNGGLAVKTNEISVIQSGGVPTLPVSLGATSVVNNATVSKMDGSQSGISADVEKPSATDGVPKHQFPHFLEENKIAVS"}
{"Strand": "ACCGACGA", "E-score": -0.13}
{"Strand": "AGACGCGG", "E-score": -0.134}
{"Strand": "CCCTTCGG", "E-score": -0.35}
{"Strand": "GGGTAAAC", "E-score": -0.0609}
{"Strand": "AAAGTGGA", "E-score": 0.0754}
{"Strand": "CCGTTGCG", "E-score": -0.189}
{"Strand": "TTAATAAA", "E-score": 0.45}
{"Strand": "AAAGTCTC", "E-score": 0.0683}
{"Strand": "CAGCGTTC", "E-score": -0.157}
{"Strand": "CTACTTCC", "E-score": -0.0595}
{"Strand": "CCTCTAAC", "E-score": 0.00183}
{"Strand": "CCCATGCA", "E-score": -0.00936}
{"Strand": "AGTCGCTG", "E-score": -0.279}
{"Strand": "ACTCGCAT", "E-score": 0.00643}
{"Strand": "GACACGCC", "E-score": -0.381}
{"Strand": "TCGTGCAA", "E-score": 0.198}
{"Strand": "AGCTCTAT", "E-score": -0.0076}
{"Strand": "CCATTTGA", "E-score": -0.00814}
{"Strand": "CACCAGCC", "E-score": -0.315}
{"Strand": "ATTGTCCC", "E-score": -0.0664}
{"Strand": "ATGCCTGG", "E-score": -0.11}
{"Strand": "GAATAAGC", "E-score": 0.116}
{"Strand": "AAACTCGT", "E-score": 0.099}
{"Strand": "CTTTACTC", "E-score": 0.139}
{"Strand": "TATGAACA", "E-score": 0.328}
{"note": "Some of these lines once more (study 4):"}
{"Strand": "CTACTTCC", "E-score": -0.0595}
{"Strand": "CCTCTAAC", "E-score": 0.00183}
{"Strand": "CCCATGCA", "E-score": -0.00936}
{"Strand": "AGTCGCTG", "E-score": -0.279}
{"Strand": "ACTCGCAT", "E-score": 0.00643}
{"Strand": "GACACGCC", "E-score": -0.381}
{"Strand": "TCGTGCAA", "E-score": 0.198}
{"Strand": "AGCTCTAT", "E-score": -0.0076}
{"Strand": "CCATTTGA", "E-score": -0.00814}
{"Strand": "CACCAGCC", "E-score": -0.315}
{"Strand": "ATTGTCCC", "E-score": -0.0664}
{"Strand": "ATGCCTGG", "E-score": -0.11}
{"Strand": "GAATAAGC", "E-score": 0.116}
